Published values collected from several papers.
Every numbered part comes from another study and shows a few of its results, in no order.

Series 1
Target: Histone acetyltransferase KAT6A, winged helix 2, GST fusion (KAT6A, Homo sapiens, UniProt Q92794, residues 85-181)
Method: protein binding microarray
Molecule type: double-stranded DNA, one strand shown
Medium: in vitro
Concentration: not given
Setting: 8-mer, flanks averaged, mean of 2 arrays, mostly near background
Reference: not given
Reading: higher = stronger binding
Quantity: E-score
Construct (chain): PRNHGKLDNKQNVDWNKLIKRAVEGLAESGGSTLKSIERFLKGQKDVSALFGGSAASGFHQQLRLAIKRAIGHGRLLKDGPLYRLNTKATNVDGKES
Oligonucleotide = CAATCCAA; value = 0.00265
Oligonucleotide = ATAGTAAC; value = -0.11
Oligonucleotide = ACGCTATG; value = -0.164
Oligonucleotide = CTACTATA; value = -0.106
Oligonucleotide = TATCCGGA; value = 0.148
Oligonucleotide = AAGTCGCG; value = 0.123
Oligonucleotide = AGCAGCAC; value = 0.184
Oligonucleotide = AGTACCTG; value = 0.103
Oligonucleotide = ATTACTAA; value = -0.0319
Oligonucleotide = CAAGCGTG; value = 0.0368
Oligonucleotide = CCCTCGAA; value = 0.027
Oligonucleotide = ATAATAAT; value = 0.104
Oligonucleotide = GCAGACGC; value = 0.0917
Oligonucleotide = AGATATGG; value = -0.0529
Oligonucleotide = AAACGACA; value = 0.0556
Oligonucleotide = CAAAAAAG; value = 0.107
Oligonucleotide = CCTCTGCA; value = 0.132
Oligonucleotide = AGGACTGG; value = -0.104
Oligonucleotide = AGGCCACG; value = 0.0297
Oligonucleotide = AACGTTAC; value = -0.168
Oligonucleotide = ATCTTGGG; value = -0.0713
Oligonucleotide = GCAACGGA; value = 0.205
Oligonucleotide = GGACTAAA; value = 0.0358

Series 2
Target: RNA binding protein fox-1 homolog 2, RRM domain, GST-SBP tag (RBFOX2, Homo sapiens, UniProt O43251-10, residues 100-194)
Method: RNA Bind-n-Seq
Molecule type: RNA
Medium: in vitro
Concentration: 365 nM
Setting: natural RNA segment, single round, ends assumed
Reference: no-protein control
Reading: higher = stronger binding
Quantity: RBNS enrichment (R)
Construct (chain): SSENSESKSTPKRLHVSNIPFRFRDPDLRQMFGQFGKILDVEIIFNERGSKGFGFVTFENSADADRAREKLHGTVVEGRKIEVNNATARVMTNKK
Oligonucleotide = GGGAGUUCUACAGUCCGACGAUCACCGCUUAUUCUUUUUGUCUUUUUAACAAACAUAUUAUCCGAAUUUUUUUUCUGCAAGCCACUGAUAGUCUCUGCUAACUAGCUUAAUUGACCUUUUUACAAAGUUUGAUUGGAAUUCUCGGGUGCCAA; value = 0.821
Oligonucleotide = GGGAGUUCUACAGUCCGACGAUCCCAGUUUCAGCCGAGGCAGCAGUUUUCCUGGGAUAAUUAGCCAAGGGUUCCCCAGAGUCUUCCUAGGUAUCUCUGGGAACCAGCAGAAGGAAUUUUCACCUAAGAGGGAUUGGAAUUCUCGGGUGCCAA; value = 0.324
Oligonucleotide = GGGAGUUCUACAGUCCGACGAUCAGAAUGUCUCCCAGCCUCAGUUUCCCUAUUUGUAAAAUGGAAAUAAUGGUAGCUACCUCAAACCUCAUUACGAAUUCAAUGAGUUAAACUUGAAAAGACUUAUUACAGUAUGGAAUUCUCGGGUGCCAA; value = 0.418
Oligonucleotide = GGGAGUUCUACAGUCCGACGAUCUCUGCUGCAGGACGCAGAAAGGAUGUAGGGGAGAGACUGCCUGUGCACCUAACCAACACCUCCAGGGGCUCGCUAAGGAGCCCCCCUCCACCCCCUGAAUGGGUGUGGCUUGGAAUUCUCGGGUGCCAA; value = 0.435
Oligonucleotide = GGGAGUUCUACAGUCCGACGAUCUUCCAUGGGCCCCACCAUUUAUGUGUAGAAUUUGAAAUGGUUGUCACCUCUCUCUGAGGACAGAGCUUGAAGCCUCCACACCAGCUGCUGCUGGAGAUUCAAAGCCCAACUGGAAUUCUCGGGUGCCAA; value = 0.37
Oligonucleotide = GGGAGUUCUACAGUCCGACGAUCGUAAACAGGUCAGCACCCCCACUACUCUUUUUAAAAUCACUUUAGUGAUGGAGAUGUCUUGCAAAGAUGUAGAGAACAAGGCCUCUUUUCCCUAGAUGAGACCUGAGGAAUGGAAUUCUCGGGUGCCAA; value = 9.97
Oligonucleotide = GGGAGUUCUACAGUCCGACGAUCAAGAGAAGAGACACAUUGUUGGAAGAAGCAGCCCAUGACAGCUCCCCUUCCUGGGACUCGCCCUCAUCCUCUUCCUGCUCCCCUUCCUGGGGUGCAGCCUAAAAGGACCUUGGAAUUCUCGGGUGCCAA; value = 0.26
Oligonucleotide = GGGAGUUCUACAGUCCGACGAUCACCAGGAGGUGGGACAGACCAUCCCCGUCUUCGCCUUCCUCGGAGCCAUGGUGGCCCUGGCCUUCUUUGUGGUACAGAUCAGCAAGGCCAAGAGCCGGCCGAAGCGGAGGUGGAAUUCUCGGGUGCCAA; value = 0.432
Oligonucleotide = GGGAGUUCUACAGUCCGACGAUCAAGCCCUUCUGUGGGUCACCUUUCUCCUCACCCAGCCCCUUGCUCUUCCCUUUUGAAAGGCCCGUGUGUUUUCUUUCCUUACCCUGUGCUUGCUCAUGUCUACUCCGGUUUGGAAUUCUCGGGUGCCAA; value = 0.799

Series 3
Target: TAR DNA-binding protein 43, full length, His tag (TARDBP, Homo sapiens, UniProt Q13148, residues 1-414)
Method: RNA Bind-n-Seq
Molecule type: RNA
Medium: in vitro
Concentration: 20 nM
Setting: 6-mer, flanks averaged, single round
Together with: 150 mM KCl
Reference: input library
Reading: higher = stronger binding
Quantity: 6-mer enrichment (R)
Oligonucleotide = UGCUUA; value = 0.617
Oligonucleotide = CAAAGU; value = 0.639
Oligonucleotide = GGUCGC; value = 1.44
Oligonucleotide = CUUAAU; value = 0.581
Oligonucleotide = GUGACU; value = 0.82
Oligonucleotide = UUAAGC; value = 0.612
Oligonucleotide = CUGCGC; value = 0.838
Oligonucleotide = CCAUCA; value = 0.594
Oligonucleotide = CUGGCU; value = 0.742
Oligonucleotide = AGACAC; value = 0.739
Oligonucleotide = CAAAUU; value = 0.615
Oligonucleotide = ACGCGC; value = 0.859
Oligonucleotide = CCCUCC; value = 0.622
Oligonucleotide = AAGUGU; value = 0.974
Oligonucleotide = GACGCG; value = 1.68
Oligonucleotide = ACACGG; value = 1.1
Oligonucleotide = GCGGAC; value = 1.53
Oligonucleotide = GGGGCA; value = 4.47
Oligonucleotide = CGAUCU; value = 0.568
Oligonucleotide = AGAGAU; value = 0.805
Oligonucleotide = CUUUCG; value = 0.578
Oligonucleotide = UAUGCG; value = 1.02
Oligonucleotide = GCCCUU; value = 0.697
Oligonucleotide = UGAAAU; value = 0.667

Series 4
Target: RING finger protein unkempt homolog, zinc fingers 1-6, GST-SBP tag (UNK, Homo sapiens, UniProt Q9C0B0, residues 30-357)
Method: RNA Bind-n-Seq
Molecule type: RNA
Medium: in vitro
Concentration: not given
Setting: RNA with constant flanks, human and mouse sites, ends assumed
Reference: input RNA pool
Reading: higher = stronger binding
Quantity: bound/input enrichment
Residues (chain): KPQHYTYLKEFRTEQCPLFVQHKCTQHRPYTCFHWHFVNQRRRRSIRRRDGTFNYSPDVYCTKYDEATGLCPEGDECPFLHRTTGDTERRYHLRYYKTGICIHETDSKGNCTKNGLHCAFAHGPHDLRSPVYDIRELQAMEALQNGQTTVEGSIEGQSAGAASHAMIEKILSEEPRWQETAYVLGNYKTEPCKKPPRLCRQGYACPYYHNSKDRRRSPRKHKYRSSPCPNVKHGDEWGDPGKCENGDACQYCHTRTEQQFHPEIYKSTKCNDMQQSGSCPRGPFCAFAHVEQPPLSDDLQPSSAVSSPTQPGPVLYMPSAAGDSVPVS
Oligonucleotide = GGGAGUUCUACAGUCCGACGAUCCUCAGUGAUCAUACACGGAACUCUGCUGAAGGUACAGAAUAUUUCAAAAUGCUUGUAGAUGUUUUUGCUCCAGAAUUUCGAAGGCCAAAGAAUAUACAUCUCCGAAAUUUCUAUAUCAUUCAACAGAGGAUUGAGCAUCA; value = 0.0959 ratio
Oligonucleotide = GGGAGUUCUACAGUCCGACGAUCCUGGAUAAUGCCGCAGAAGCAGCUGAACAAUUUAAAUUAAUCCAAGCAGCAUAUGAUGUGUUGAGUGACCCUCAGGAAAGAGCAUGGUAUGAUAAUCAUAGAGAGGCCCUACUUAAAGGUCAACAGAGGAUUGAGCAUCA; value = 0.39 ratio
Oligonucleotide = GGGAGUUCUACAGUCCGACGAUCCAUACCAGCUGAAGAGCGACAAGCCGCUGGCAGCCGCGGAUCUCACCGCCGCUCAGGGUUUUUAGAACUUCAGCCAUAAAAAUGGGCAGAAUUUUCCUUGAUCAUAUCGGUGGUACCCGUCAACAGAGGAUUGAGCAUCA; value = 0.145 ratio
Oligonucleotide = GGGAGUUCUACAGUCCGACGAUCCAGGUGGGCCAAUCCAAAAUAACAGUUCUUGGCAGUCCUUCCAUGGGUAUCUAUCUUUGUAGGUAUGCAGAUCUCUUACAGGCUAAUCCUUUGGAGGCUGGGGCAGUAGGCGAUGUUGUUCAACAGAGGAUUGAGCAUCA; value = 0.518 ratio
Oligonucleotide = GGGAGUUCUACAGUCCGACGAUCAGCCCGGGAUUUGAUUCCGAGCCUGUGACUACAUCACAGCCGUCUCUGUCUGUUCUCCCCACAGUUAAGAUCCUUCUGUUCUACGUGAUAUUUUAUGGCUGCCUGGCUGGCAUCUUCAUCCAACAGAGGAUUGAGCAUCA; value = 0.0972 ratio
Oligonucleotide = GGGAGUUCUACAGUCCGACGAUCAUAAAAUGUGUUUUGUGUUCCCAUUACUGCAGUAGGUGCUAGUGAGCAUAAGAUGCAUACAAUAGGGCUCCUGCCCUUCCCUGAGUUAGAAUGUGGUUCAGUACAUAUGUUUAGUAUGCACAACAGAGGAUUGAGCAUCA; value = 0.908 ratio
Oligonucleotide = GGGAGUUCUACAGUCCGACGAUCCUGAGGCUGUGGGGUGAUCAUGGACAAGAAGCUUUGGAAUCUGCUCAUGUUUGCUUAAUAAAUGCAACGGCUACAGGAACUGAAAUUCUUAAAAACUUGGUGCUGCCAGGUAUUGGAUCACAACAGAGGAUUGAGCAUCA; value = 0.189 ratio
Oligonucleotide = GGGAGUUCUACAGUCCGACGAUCCUCCACUCACAAGAAAUGCCCUUUAAUUUCUACUGUUUACAAACAAAGCUCUCCAGGUCUUAUUCUGUCUCUCAAGUGUACUGGACAAAACUGACCGUGGUUCCUCAAGCAAUGUUUGGUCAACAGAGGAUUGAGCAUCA; value = 0.157 ratio
Oligonucleotide = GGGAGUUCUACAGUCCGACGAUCUUUGUUGAAAUACUUGUUCCAGUUGCUGCUGCUGUUAAAAAUGAAGUAAAUGUUCCCUGCCUUAGAAAUUUUGUGGAAAGCCUGUAUGACACCACGCUGGAACUUUCUUCUCGAAAGAAGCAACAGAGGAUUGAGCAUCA; value = 2.34 ratio
Oligonucleotide = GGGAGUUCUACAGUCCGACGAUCCUUAGAAUAGGGAAGCUUGCUAUUUUAAAGCUCUUGUAGUGCUUUUCUUUUAAGGGAGAUGUAGUAAAAGGGAAAAUGUAGCUCUUAGUUUACACUUCAAAGAUGUGGGGGUCUUUCAGACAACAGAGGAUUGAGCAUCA; value = 1.24 ratio
Oligonucleotide = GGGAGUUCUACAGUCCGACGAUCUCGAACAAAAAUCUUUUCUGAAAGCAAAAAUACAUUAGACGAACUAAAAAAAGAAUACCAAGCAUUAGAAACCUCCGAGACAACCAAAGUCAAGACACAGUCAACCUGACUUCACAUAACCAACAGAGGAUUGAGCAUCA; value = 3.07 ratio

Repeated from above (series 2):
Oligonucleotide = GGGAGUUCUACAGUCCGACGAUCCCAGUUUCAGCCGAGGCAGCAGUUUUCCUGGGAUAAUUAGCCAAGGGUUCCCCAGAGUCUUCCUAGGUAUCUCUGGGAACCAGCAGAAGGAAUUUUCACCUAAGAGGGAUUGGAAUUCUCGGGUGCCAA; value = 0.324
Oligonucleotide = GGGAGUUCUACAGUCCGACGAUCUCUGCUGCAGGACGCAGAAAGGAUGUAGGGGAGAGACUGCCUGUGCACCUAACCAACACCUCCAGGGGCUCGCUAAGGAGCCCCCCUCCACCCCCUGAAUGGGUGUGGCUUGGAAUUCUCGGGUGCCAA; value = 0.435
Oligonucleotide = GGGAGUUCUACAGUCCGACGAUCAGAAUGUCUCCCAGCCUCAGUUUCCCUAUUUGUAAAAUGGAAAUAAUGGUAGCUACCUCAAACCUCAUUACGAAUUCAAUGAGUUAAACUUGAAAAGACUUAUUACAGUAUGGAAUUCUCGGGUGCCAA; value = 0.418
Oligonucleotide = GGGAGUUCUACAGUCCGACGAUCUUCCAUGGGCCCCACCAUUUAUGUGUAGAAUUUGAAAUGGUUGUCACCUCUCUCUGAGGACAGAGCUUGAAGCCUCCACACCAGCUGCUGCUGGAGAUUCAAAGCCCAACUGGAAUUCUCGGGUGCCAA; value = 0.37
